Experimental data pooled from the literature.
Each numbered part is a random draw from the data of one study; scales do not carry over between parts.

Series 1
Target: Centromere-binding protein 1, full length, N-terminal tag (CBF1, Saccharomyces cerevisiae, UniProt P17106, residues 1-351)
UniProt P17106, sequence (whole entry, looked up): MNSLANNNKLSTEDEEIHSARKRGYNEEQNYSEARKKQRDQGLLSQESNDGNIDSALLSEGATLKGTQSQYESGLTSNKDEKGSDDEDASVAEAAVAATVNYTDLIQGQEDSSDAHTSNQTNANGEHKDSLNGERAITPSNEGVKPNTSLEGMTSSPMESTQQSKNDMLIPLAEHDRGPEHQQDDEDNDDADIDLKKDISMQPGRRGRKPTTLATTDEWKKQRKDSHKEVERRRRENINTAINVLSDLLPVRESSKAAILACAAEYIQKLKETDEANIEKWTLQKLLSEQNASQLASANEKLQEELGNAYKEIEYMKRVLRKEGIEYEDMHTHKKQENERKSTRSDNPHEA
Technique: protein-binding microarray
Molecule type: double-stranded DNA, one strand shown
Matrix: in vitro
Concentration: 0.8 µM
Notes: whole 60-bp probe, no competitor
Direction: higher = stronger binding
| Sequence | fluorescence intensity |
| --- | --- |
| GAAACAAACCTGTCACGTGCAACATTATGGGGTTAGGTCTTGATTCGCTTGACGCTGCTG | 17900 a.u. |
| GAAAAAAGCACGTGGCACGAGAAACGCGCACGCTAGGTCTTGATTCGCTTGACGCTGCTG | 9120 a.u. |
| GAACGGTATACTCGTCATGAGACACGAAAAGTGTAGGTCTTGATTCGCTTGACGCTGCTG | 1090 a.u. |
| CCTAACTACTATACGCACATGCTATAGCTTCGTACAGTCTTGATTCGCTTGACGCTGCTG | 628 a.u. |
| CTACGAACGGAAGCGTGCGTGCTCTGAGTTTTTTTCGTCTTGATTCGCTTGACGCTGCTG | 544 a.u. |
| GAAGAATAAAAAAATCACCACGAACACACAACCTAGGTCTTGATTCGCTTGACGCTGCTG | 566 a.u. |
| CTACCACTCTTTCTCCACGTGGCTTTGCTTTCCTTCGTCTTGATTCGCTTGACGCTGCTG | 2480 a.u. |
| GAACATCTTTAGCACCACGCCTAACGCGTCAAATAGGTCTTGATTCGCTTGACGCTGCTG | 530 a.u. |
| GAAGTCGAAAAAATAAACGTGCGTCGTGGAACTTAGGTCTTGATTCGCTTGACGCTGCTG | 568 a.u. |
| CTACCTCCCACCAGAAAGTCACCTGCTCTCTTATTCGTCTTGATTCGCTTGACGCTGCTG | 5020 a.u. |
| CTATCTTTGCTGCATCATGCATCATATGTTTGGTTCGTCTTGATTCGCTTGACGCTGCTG | 636 a.u. |
| CTAAGGATAGTGTGCAACGTGGCATAAGCTATGTTCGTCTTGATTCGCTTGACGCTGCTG | 588 a.u. |
| GAAGAATCCGCTTGGCGCGTGATTGAGCCAATGTAGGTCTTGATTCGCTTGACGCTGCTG | 1060 a.u. |
| CTAGAATGCGATGGAGGTGATGCTAGTGTGGACTTCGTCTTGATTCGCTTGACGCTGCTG | 540 a.u. |
| GAATCATTGTTCGGTCACGAATGTGTCATTGACTAGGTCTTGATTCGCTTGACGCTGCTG | 628 a.u. |
| GAAGTTAATCGACCCCACGTCCAGGGTTTTTCCTAGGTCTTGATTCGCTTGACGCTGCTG | 467 a.u. |

Series 2
Target: RNA binding protein fox-1 homolog 2, RRM domain, GST-SBP tag (RBFOX2, Homo sapiens, UniProt O43251-10, residues 100-194)
Technique: RNA Bind-n-Seq
Molecule type: RNA
Matrix: in vitro
Concentration: 365 nM
Notes: natural RNA segment, single round, ends assumed
Reference: no-protein control
Direction: higher = stronger binding
Construct (chain): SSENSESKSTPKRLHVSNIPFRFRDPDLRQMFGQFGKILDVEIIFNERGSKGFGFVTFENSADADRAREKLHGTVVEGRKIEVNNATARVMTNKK
| Sequence | RBNS enrichment (R) |
| --- | --- |
| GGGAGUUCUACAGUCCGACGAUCCCUUUGCUAAUGUCAGAGACAGUUCCUAACCUAGUAACAGUUCACUUUGCGUCGUUUCUGUACUUCUUUAAAACAACUAAGCCACCGUUCGCAGCUGAGUUGUGAUACUGUGGAAUUCUCGGGUGCCAA | 0.298 |
| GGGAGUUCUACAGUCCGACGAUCACUGGUCGGAUAACUCCGCCUGCUGCCCACAUUCCUCUUUCUAGUCCUCCCACCUGCCUUCCUCCAUACAAACUAACAGUCUCAUGGGGGGAAGAAAGCAAGGGACAAAGUGGAAUUCUCGGGUGCCAA | 0.19 |
| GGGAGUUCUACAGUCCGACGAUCGCCCCCAUAGAAUGUGACCCUGUCUGCAGAGUCUCAUUUACCCCUCUUUUUCUCAUUGUCAUUUGUUGGCUUUAUUAGGGCUGUCUUACAGGAUCAUGUUGGCAUUUACUUGGAAUUCUCGGGUGCCAA | 0.542 |
| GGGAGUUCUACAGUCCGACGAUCCAUUGAUGCGGACAGGUAAGAACAACCCAUGUACCCCCGAGUGAUUGCAUGCUUUAUUCUACCUCUAAGCCAUCGUGUUGACGUGGGUAUGGACGCCUGGGUCUGACCUGUGGAAUUCUCGGGUGCCAA | 3.25 |
| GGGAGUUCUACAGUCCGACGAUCUUUUUAAUGCUGUUCCUCAUGUACAUGACUUAAAAAUGUCACCAAGGCAUCAAAAUGAGUUGACAGCCAGGCCUGGUGGUACAGGCCAGUAAAGCCAGCUGCUCUGGAGGUGGAAUUCUCGGGUGCCAA | 0.314 |
| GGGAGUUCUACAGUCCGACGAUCACGUGCUAGAAACCGAUGACUUAUUAAUCUCUAAUUUUUUGGCGCCUCUUUCAUUGAAUGAGAAUUGCUUUCGUAUAGUUCACAUUAGAAAAAUGCCUAAUAUACUAAAGUGGAAUUCUCGGGUGCCAA | 0.475 |
| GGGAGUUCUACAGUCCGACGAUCUAAGACACUGUGACAGUUGUCUGUCGGUCCACUGUGUUUAGUUGCAAAGAUUUCACCAUGUGUGUUGUUUUUGUUACUGUCUUAAAGGGUGCACAUUUGUGAUCAGCAUUUGGAAUUCUCGGGUGCCAA | 0.326 |
| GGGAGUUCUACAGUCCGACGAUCCAGGCAUCCCAUGGGACCCAUCACUGCCAGUGUCUGUGCCUCCCAGAGGUCAGCCGUGUCUGCCCUGGCUCUGUCUCCUCUGUGACAGGGCAGAGCAUUUCUGGUCAGUUUGGAAUUCUCGGGUGCCAA | 0.213 |

Series 3
Target: Histone acetyltransferase KAT6A, both winged helices, GST fusion (KAT6A, Homo sapiens, UniProt Q92794, residues 1-181)
Technique: protein binding microarray
Molecule type: double-stranded DNA, one strand shown
Matrix: in vitro
Concentration: not given
Notes: 8-mer, flanks averaged, mean of 2 arrays, mostly near background
Reference: not given
Direction: higher = stronger binding
Target sequence (chain): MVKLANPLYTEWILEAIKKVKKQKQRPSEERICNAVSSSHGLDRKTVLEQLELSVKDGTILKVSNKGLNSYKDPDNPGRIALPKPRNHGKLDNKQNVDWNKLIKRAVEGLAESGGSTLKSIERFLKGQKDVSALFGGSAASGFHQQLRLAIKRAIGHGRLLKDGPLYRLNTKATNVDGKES
| Sequence | E-score |
| --- | --- |
| CATAATGA | -0.0485 |
| TACAGGAA | -0.0358 |
| GCACCGGC | 0.262 |
| ACTACCCG | 0.206 |
| CCTAGAGG | -0.102 |
| AGCGGGTA | 0.254 |
| GGTCACTA | -0.0299 |
| ACAATTTC | -0.0775 |
| AAGACGAA | -0.139 |
| GCCGAATA | 0.186 |
| TCGCTAGA | -0.0253 |
| CCGCATCA | 0.177 |
| AATGTGCT | 0.0664 |
| GAAACCCC | 0.0502 |
| ACTACGAT | -0.0905 |
| AAGATGAT | -0.132 |

Series 4
Target: Fragile X messenger ribonucleoprotein 1, C-terminal low-complexity region (Fmr1, Mus musculus, UniProt P35922)
Technique: RNA Bind-n-Seq
Molecule type: RNA
Matrix: in vitro
Concentration: 200 nM
Notes: whole 134-nt RNA, ends assumed
Together with: 150 mM KCl
Reference: input library
Direction: higher = stronger binding
| Sequence | log2 enrichment |
| --- | --- |
| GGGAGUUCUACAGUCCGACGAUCACCAUGCAGGUGGGCAUCUUUGGGAAGUGGGGCAAGGGGGGGAUAGGGAGGGGGGUAACACUUUGGGAACAGCUGGUCCCAGGUCGUUUCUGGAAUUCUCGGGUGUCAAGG | 0.992 |
| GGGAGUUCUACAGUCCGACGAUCAGUCCUGUGCUACACAUCGUAUGUACCGAAUCGGGGAGGGGUUUGGGGUUUUUGGGGAAAGUAUUAUGUUACGCCGUUCGGAUCUGCACUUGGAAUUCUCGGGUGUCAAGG | 0.834 |
| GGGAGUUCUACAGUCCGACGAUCCACAGACAACACGCACCCACACAGACACAGAGGGAAGGGGUUGGGAUGGGGACAGGGUGCACAGCAAGGCGGGGUAGGACCCCAGCCCCUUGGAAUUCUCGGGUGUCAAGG | 1.2 |
| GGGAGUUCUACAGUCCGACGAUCCAAGUCCUGUGCUACACAUCGUAUGUACCGAAUCAAACCCAAACCCAAACCCAAAAAAGUAUUAUGUUACGCCGUUCGGAUCUGCACUUCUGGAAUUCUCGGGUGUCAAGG | -0.221 |
| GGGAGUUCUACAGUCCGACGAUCUGCUUGUGUUUCUGACAGAUUCACUGCCUUCUGAGGACUUGGAUCCUGCCGAUCCCCCGAUCUCGGUAACUGUUGGCCUGAUCUGGCUGUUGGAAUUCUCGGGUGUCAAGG | 0.306 |
| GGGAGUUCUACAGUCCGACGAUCUCCUGUGCUACACAUCGUAUGUACCGAAUCGGGGAAAAAGGGGAAAAAGGGGAAAAAGGGAAAGUAUUAUGUUACGCCGUUCGGAUCUGCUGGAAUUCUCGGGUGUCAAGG | 0.0644 |
| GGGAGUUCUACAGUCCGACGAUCAAGUCCUGUGCUACACAUCGUAUGUACCGAAUCGGGAAAAAAAGGGAGGGAAAGGGAAAGUAUUAUGUUACGCCGUUCGGAUCUGCACUUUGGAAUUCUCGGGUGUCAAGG | 0.323 |
| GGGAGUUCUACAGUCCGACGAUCACCAUGCCGGUGGGCAUCUUUGGGAAGUGGGGCAAGGGGGGGAUAGGGAGGGGGGUAACACUUUGGGAACAGGUGGUCCCAGGUCGUUUCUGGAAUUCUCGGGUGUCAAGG | 1.18 |
| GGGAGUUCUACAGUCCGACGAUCUCCUGUGCUACACAUCGUAUGUACCGAAUCAAAUUUUUAAAUUUUUAAAUUUUUUUAAAAAAGUAUUAUGUUACGCCGUUCGGAUCUGCAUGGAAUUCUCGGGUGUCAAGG | -0.325 |

Series 5
Target: Cln2 (Saccharomyces cerevisiae)
Observed: peptide binding
Technique: competitive growth sequencing
Molecule type: peptide
Organism: Saccharomyces cerevisiae
Strain: unfused Cln2 strain
Notes: peptide tiling library
Direction: direction not given
| Molecule | enrichment score |
| --- | --- |
| DVSERGYVILPNDYFE | 0.693 |
| HPESPPRKRLKSKGSD | 3.81 |
| AKRSLGFLPQPVPL | -0.737 |
| RTEALEQGGLPKKLIF | 0.59 |
| ESSQLTVQAEFDMSAI | 0.535 |
| KVRRNLFNQELLSP | -0.466 |
| YLYLLLTQSLWCRV | -1.27 |
| EHCRVLFLDHVMYTIH | -0.89 |
| RQVRRDLFAF | -1.23 |
| GPVKLEFDVSDGAT | 0.306 |
| NEGVSNAVRRSLYIRD | -0.669 |
| LENIEPLQVSFAVLSS | 1.25 |
| QYQVVDDIVSKLVFDF | 0.237 |
| QNPCGSKACRRLFGPV | -1.09 |

A few entries again (series 1):
| Sequence | fluorescence intensity |
| --- | --- |
| GAAGAATAAAAAAATCACCACGAACACACAACCTAGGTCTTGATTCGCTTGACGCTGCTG | 566 a.u. |
| CTACCACTCTTTCTCCACGTGGCTTTGCTTTCCTTCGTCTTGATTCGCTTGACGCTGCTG | 2480 a.u. |
| GAACATCTTTAGCACCACGCCTAACGCGTCAAATAGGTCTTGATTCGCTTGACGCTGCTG | 530 a.u. |
| GAAGTCGAAAAAATAAACGTGCGTCGTGGAACTTAGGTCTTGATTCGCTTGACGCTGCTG | 568 a.u. |
| CTACCTCCCACCAGAAAGTCACCTGCTCTCTTATTCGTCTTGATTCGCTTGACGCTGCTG | 5020 a.u. |
| CTATCTTTGCTGCATCATGCATCATATGTTTGGTTCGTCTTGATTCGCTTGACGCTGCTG | 636 a.u. |
| CTAAGGATAGTGTGCAACGTGGCATAAGCTATGTTCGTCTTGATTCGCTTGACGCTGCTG | 588 a.u. |
| GAAGAATCCGCTTGGCGCGTGATTGAGCCAATGTAGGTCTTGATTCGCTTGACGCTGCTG | 1060 a.u. |
